Results from different studies.
Several values in a cell are separate wells, animals, samples, runs or records. ± marks the error that the study gave.

With CC(C)C[C@@H]1NC(=O)[C@H](CC(N)=O)NC(=O)[C@H](CCCNC(=N)N)NC(=O)[C@H]([C@@H](C)O)NC(=O)[C@@H]2CSSC[C@@H]3NC(=O)[C@H]([C@@H](C)O)NC(=O)CNC(=O)CNC(=O)[C@H](C(C)C)NC(=O)[C@@H]4CSSC[C@H](NC(=O)[C@H]([C@@H](C)O)NC(=O)[C@H](CSSC[C@H](NC(=O)[C@H](C(C)C)NC(=O)[C@@H]5CCCN5C(=O)[C@H](CC(C)C)NC1=O)C(=O)NCC(=O)N[C@@H](CCC(=O)O)C(=O)N[C@@H]([C@@H](C)O)C(=O)N4)NC(=O)CNC(=O)[C@@H]1CCCN1C(=O)[C@H]([C@@H](C)O)NC(=O)[C@H](CC(N)=O)NC3=O)C(=O)N[C@@H](CO)C(=O)N[C@@H](Cc1c[nH]c3ccccc13)C(=O)N1CCC[C@H]1C(=O)N[C@@H](C(C)C)C(=O)N2 the remaining peptide was 98.1 ± 1.5% (HPLC; ammonium bicarbonate 0.1 M; 180 µM, 7 days, pH 9.0, 37 °C, deamidation stability).
The remaining compound of CC[C@@H](C)[C@@H](NC(=O)[C@@H](Cc1ccc(O)cc1)NC(=O)[C@H]1CCCN1C(=O)[C@@H](CCCNC(=N)N)NC(=O)[C@H](N)Cc1c[nH]cn1)C(=O)N[C@H](C)C(=O)N[C@H](Cc1c[nH]cn1)C(=O)N[C@H](CCCNC(=N)N)C(=O)N[C@H](CCCCNC(=O)c1cccc(S(=O)(=O)F)c1)C(=O)N[C@H](Cc1ccc(O)cc1)C(=O)N[C@H](CO)C(=O)N[C@H](Cc1ccccc1)C(N)=O is reported as 110% and 111% (10% human serum; 48 h).
With CCC[C@@](N)(CO)CCc1ccc(OCCCCCC(C)C)cc1 the remaining compound was 60% (human liver microsomes; 1 h).
With CC(C)C[C@@H]1NC(=O)CNC(=O)[C@H](CC(N)=O)NC(=O)[C@H](CCCNC(=N)N)NC(=O)[C@H]([C@@H](C)O)NC(=O)[C@@H]2CSSC[C@@H]3NC(=O)[C@H]([C@@H](C)O)NC(=O)CNC(=O)CNC(=O)[C@H](C(C)C)NC(=O)[C@@H]4CSSC[C@H](NC(=O)[C@H]([C@@H](C)O)NC(=O)[C@H](CSSC[C@H](NC(=O)[C@H](C(C)C)NC(=O)[C@@H]5CCCN5C1=O)C(=O)NCC(=O)N[C@@H](CCC(=O)O)C(=O)N[C@@H]([C@@H](C)O)C(=O)N4)NC(=O)CNC(=O)[C@H](CCCCN)NC(=O)[C@H]([C@@H](C)O)NC(=O)[C@H](CC(N)=O)NC3=O)C(=O)N[C@@H](CO)C(=O)N[C@@H](Cc1c[nH]c3ccccc13)C(=O)N1CCC[C@H]1C(=O)N[C@@H](C(C)C)C(=O)N2 the remaining peptide was 89.5 ± 0.6% (HPLC; ammonium bicarbonate; 180 µM, 14 days, pH 9.0, 25 °C, deamidation stability).
For CC[C@H](C)[C@H](N)C(=O)N[C@H](CC(C)C)C(=O)N[C@@H](CCCNC(=N)N)C(=O)N[C@@H](Cc1c[nH]c2ccccc12)C(=O)N[C@@H](CO)C(=O)N[C@@H](CCCNC(=N)N)C(=O)N[C@@H](CCCCN)C(=O)N[C@@H](CC(C)C)C(=O)N1CCC[C@H]1C(=O)N[C@@H](CS)C(=O)N[C@H](C(=O)N[C@@H](CO)C(N)=O)C(C)C, the remaining activity was 63 ± 12% (12G5 competition, SUP-T1 cells; human plasma; concentration not given, 2 h).
CC[C@@H](C)[C@@H](NC(=O)[C@@H](Cc1ccc(O)cc1)NC(=O)[C@H]1CCCN1C(=O)[C@@H](CCCNC(=N)N)NC(=O)[C@H](N)Cc1c[nH]cn1)C(=O)N[C@H](C)C(=O)N[C@H](Cc1c[nH]cn1)C(=O)N[C@H](CCCNC(=N)N)C(=O)N[C@@H](C(=O)N[C@H](Cc1ccc(O)cc1)C(=O)N[C@H](CO)C(=O)N[C@H](Cc1ccccc1)C(N)=O)C(C)C has a remaining compound of 101% and 99.7% (10% human serum; 2 h).
CSCC[C@H](NC(=O)[C@H](CCCCN)NC(=O)[C@H](CCCNC(=N)N)NC(=O)[C@H](CO)NC(=O)[C@H](Cc1c[nH]c2ccccc12)NC(=O)[C@H](CCCNC(=N)N)NC(=O)[C@H](CC(C)C)NC(=O)[C@H](N)Cc1ccccc1)C(=O)N1CCC[C@H]1C(=O)N[C@@H](CS)C(=O)N[C@H](C(=O)N[C@@H](CO)C(N)=O)C(C)C gave a remaining activity of 66 ± 6% (12G5 competition, SUP-T1 cells; human plasma; 20 µM, 2 h, 37 °C).
CCCCN1CCC(COC(=O)c2ccc(N)c(O[11CH3])c2)CC1 — result for “remaining parent compound”: 99.5% (phosphate buffer; 30 min).
The remaining peptide of CC(C)C[C@@H]1NC(=O)CNC(=O)[C@H](CC(N)=O)NC(=O)[C@H](CCCNC(=N)N)NC(=O)[C@H]([C@@H](C)O)NC(=O)[C@@H]2CSSC[C@@H]3NC(=O)[C@H]([C@@H](C)O)NC(=O)CNC(=O)CNC(=O)[C@H](C(C)C)NC(=O)[C@@H]4CSSC[C@H](NC(=O)[C@H](CCCCN)NC(=O)[C@H](CSSC[C@H](NC(=O)[C@H](C(C)C)NC(=O)[C@@H]5CCCN5C1=O)C(=O)NCC(=O)N[C@@H](CCC(=O)O)C(=O)N[C@@H]([C@@H](C)O)C(=O)N4)NC(=O)CNC(=O)[C@@H]1CCCN1C(=O)[C@H]([C@@H](C)O)NC(=O)[C@H](CC(N)=O)NC3=O)C(=O)N[C@@H](CO)C(=O)N[C@@H](Cc1c[nH]c3ccccc13)C(=O)N1CCC[C@H]1C(=O)N[C@@H](C(C)C)C(=O)N2 is reported as 91 ± 0.9% (HPLC; ammonium bicarbonate; 180 µM, 14 days, pH 9.0, 25 °C, deamidation stability).
For C/C(=C\CCP(=O)(OCOC(=O)c1ccccc1)Oc1ccc(C(C)C)cc1)CO (stereo not shown), the remaining compound was 0.079% (50% Sprague-Dawley rat plasma; 100 µM, 2 h, pH 7.5, 37 °C).
With NNc1ccccc1 the remaining fraction was 0.45 and 0.41 and 0.52 (PBS; 12 h, 37 °C; reference: initial amount).
With CC(C)C[C@@H]1NC(=O)CNC(=O)[C@H](CC(N)=O)NC(=O)[C@H](CCCNC(=N)N)NC(=O)[C@H]([C@@H](C)O)NC(=O)[C@@H]2CSSC[C@@H]3NC(=O)[C@H]([C@@H](C)O)NC(=O)CNC(=O)[C@H](CCCCN)NC(=O)[C@H](C(C)C)NC(=O)[C@@H]4CSSC[C@H](NC(=O)[C@H]([C@@H](C)O)NC(=O)[C@H](CSSC[C@H](NC(=O)[C@H](C(C)C)NC(=O)[C@@H]5CCCN5C1=O)C(=O)NCC(=O)N[C@@H](CCC(=O)O)C(=O)N[C@@H]([C@@H](C)O)C(=O)N4)NC(=O)CNC(=O)[C@@H]1CCCN1C(=O)[C@H]([C@@H](C)O)NC(=O)[C@H](CC(N)=O)NC3=O)C(=O)N[C@@H](CO)C(=O)N[C@@H](Cc1c[nH]c3ccccc13)C(=O)N1CCC[C@H]1C(=O)N[C@@H](C(C)C)C(=O)N2 the remaining peptide was 92.5 ± 1.4% (HPLC; ammonium bicarbonate; 180 µM, 14 days, pH 9.0, 25 °C, deamidation stability).
The remaining compound of c1ccc([C@@H]2C[C@H]2NC2CCNCC2)cc1 is reported as 99% (aqueous buffer; 0 days, 37 °C).

For quick reference, copied from above:
With CC(C)C[C@@H]1NC(=O)CNC(=O)[C@H](CC(N)=O)NC(=O)[C@H](CCCNC(=N)N)NC(=O)[C@H]([C@@H](C)O)NC(=O)[C@@H]2CSSC[C@@H]3NC(=O)[C@H]([C@@H](C)O)NC(=O)CNC(=O)[C@H](CCCCN)NC(=O)[C@H](C(C)C)NC(=O)[C@@H]4CSSC[C@H](NC(=O)[C@H]([C@@H](C)O)NC(=O)[C@H](CSSC[C@H](NC(=O)[C@H](C(C)C)NC(=O)[C@@H]5CCCN5C1=O)C(=O)NCC(=O)N[C@@H](CCC(=O)O)C(=O)N[C@@H]([C@@H](C)O)C(=O)N4)NC(=O)CNC(=O)[C@@H]1CCCN1C(=O)[C@H]([C@@H](C)O)NC(=O)[C@H](CC(N)=O)NC3=O)C(=O)N[C@@H](CO)C(=O)N[C@@H](Cc1c[nH]c3ccccc13)C(=O)N1CCC[C@H]1C(=O)N[C@@H](C(C)C)C(=O)N2 the remaining peptide was 92.5 ± 1.4% (HPLC; ammonium bicarbonate; 180 µM, 14 days, pH 9.0, 25 °C, deamidation stability).
With CC(C)C[C@@H]1NC(=O)CNC(=O)[C@H](CC(N)=O)NC(=O)[C@H](CCCNC(=N)N)NC(=O)[C@H]([C@@H](C)O)NC(=O)[C@@H]2CSSC[C@@H]3NC(=O)[C@H]([C@@H](C)O)NC(=O)CNC(=O)CNC(=O)[C@H](C(C)C)NC(=O)[C@@H]4CSSC[C@H](NC(=O)[C@H]([C@@H](C)O)NC(=O)[C@H](CSSC[C@H](NC(=O)[C@H](C(C)C)NC(=O)[C@@H]5CCCN5C1=O)C(=O)NCC(=O)N[C@@H](CCC(=O)O)C(=O)N[C@@H]([C@@H](C)O)C(=O)N4)NC(=O)CNC(=O)[C@H](CCCCN)NC(=O)[C@H]([C@@H](C)O)NC(=O)[C@H](CC(N)=O)NC3=O)C(=O)N[C@@H](CO)C(=O)N[C@@H](Cc1c[nH]c3ccccc13)C(=O)N1CCC[C@H]1C(=O)N[C@@H](C(C)C)C(=O)N2 the remaining peptide was 89.5 ± 0.6% (HPLC; ammonium bicarbonate; 180 µM, 14 days, pH 9.0, 25 °C, deamidation stability).
